Assay results collected from several papers.
Each numbered part is a random draw from the data of one study; scales do not carry over between parts.

Series 1
Target: TAR DNA-binding protein 43, full length, His tag (TARDBP, Homo sapiens, UniProt Q13148, residues 1-414)
Method: RNA Bind-n-Seq
Molecule type: RNA
Matrix: in vitro
Concentration: 20 nM
Setting: 6-mer, flanks averaged, single round
With: 150 mM KCl
Baseline: input library
Reading: higher = stronger binding
Under “6-mer enrichment (R)”, `UAGGCC` is recorded as 0.792.
For `UGUAGU`, “6-mer enrichment (R)” read 0.889.
`CAUCGG`: “6-mer enrichment (R)” 0.92.
For `AAACUC`, “6-mer enrichment (R)” read 0.586.
`GACCUC`: “6-mer enrichment (R)” 0.655.
Under “6-mer enrichment (R)”, `CGUGGU` is recorded as 1.31.
`UCGCGC` — result for “6-mer enrichment (R)”: 0.807.
`ACAUCG`: “6-mer enrichment (R)” 0.641.
For `GGGGGA`, “6-mer enrichment (R)” read 8.36.
Under “6-mer enrichment (R)”, `CGGGGA` is recorded as 3.87.
Under “6-mer enrichment (R)”, `ACACAA` is recorded as 0.703.
`CAUCAC` — result for “6-mer enrichment (R)”: 0.595.
`GUACGU` — result for “6-mer enrichment (R)”: 0.883.
For `CUACGU`, “6-mer enrichment (R)” read 0.625.
For `AGUAAA`, “6-mer enrichment (R)” read 0.67.
For `UUUUCU`, “6-mer enrichment (R)” read 0.673.
`UCCCAU` — result for “6-mer enrichment (R)”: 0.609.

Series 2
Target: RING finger protein unkempt homolog, zinc fingers 1-6, GST-SBP tag (UNK, Homo sapiens, UniProt Q9C0B0, residues 30-357)
Sequence of UniProt Q9C0B0 (30-357, looked up): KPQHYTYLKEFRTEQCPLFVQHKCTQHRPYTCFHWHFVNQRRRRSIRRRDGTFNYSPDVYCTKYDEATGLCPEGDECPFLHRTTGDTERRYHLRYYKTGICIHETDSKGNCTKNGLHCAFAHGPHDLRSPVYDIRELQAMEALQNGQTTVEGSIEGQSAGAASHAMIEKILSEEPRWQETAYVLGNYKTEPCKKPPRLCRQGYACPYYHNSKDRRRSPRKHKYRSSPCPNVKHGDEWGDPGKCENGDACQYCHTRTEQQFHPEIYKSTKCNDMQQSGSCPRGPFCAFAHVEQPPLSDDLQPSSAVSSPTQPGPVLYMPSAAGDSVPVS
Method: RNA Bind-n-Seq
Molecule type: RNA
Matrix: in vitro
Concentration: not given
Setting: RNA with constant flanks, human and mouse sites, ends assumed
Baseline: input RNA pool
Reading: higher = stronger binding
Shared flanks, not repeated: GGGAGUUCUACAGUCCGACGAUC … CAACAGAGGAUUGAGCAUCA
The bound/input enrichment of `GUUGUAAGUAGUAUGCCAGAAAGAGCUUCAGAGUCUUCUUCAGAGGAAAAAGAUGAUUAUGAAAUUUUUGUAAAAGUUAAGGACACUCACGAAAAAAGCAAGAAAAAUAAGAACCGUGAU` is reported as 0.771 ratio.
With `AAUGAUGCAUCUAAUAUUGAUGGUUUCUUGGGACCAUGGGCAAAAUAUGUGGAUGAAAAAGAUGUGGCCAAACCUUCAGAAGAAGAACAAAAGGAAUUGGAUGAAAUCACAGCAAAGAGG` the bound/input enrichment was 0.266 ratio.
`AGCCUACUCUGCUUAAGGUAUUCUUUUCCUCAAAGAUGCCCUAGUGCCAUGACUUCAGAAAUGUUUAUUACCGUUUUGAAACAGAAGCCAUUCUGCAUAUGCCUUUGAAUUCCUGCCGUC` has a bound/input enrichment of 0.207 ratio.
The bound/input enrichment of `GGAAAUCGGGCUGAAGCGACUGAGUCCGCGAUGGAGAGAGAAAAGGAACAGUUCCGUAAGCUCUUUAUUGGUGGCUUAAGCUUUGAAACCACAGAAGAAAGUUUGAGGAACUACUACGAA` is reported as 0.356 ratio.
`AGGCCUUUGCCACAACCAAGAGAGGCUUGGGGAUUAUCUGACUCCUUCCAACCUGCUCUGCCACAGAGAGCAGCACAAACUACUCCAGCAUCCCAUUUGAAUGUAAGCCAGUAUAACACU` gave a bound/input enrichment of 0.141 ratio.
For `AUGAUGAUUUUCAUUGAAGCAUCCUCAGAAAACCCUUGUAGUCUUUACUCUUCUGUCUGUUAUAGCCCCCAGGCAGAAAAAGUUUACAAGUUAUGCAGCCCACCCGCUGAUUUGCAUAAG`, the bound/input enrichment was 0.193 ratio.
The bound/input enrichment of `AAAUCGGGCUGAAGCGACUGAGUCCGCGAUGGAGAGAGAAAAGGAACAGUUCCGUAAGCUCUUUAUUGGUGGCUUAAGCUUUGAAACCACAGAAGAAAGUUUGAGGAACUACUACGAACA` is reported as 0.264 ratio.
For `GUCUGUCUCAAGGGUACUUAAGCAGCAGAGACCCCUGAAUAUAGGGAUUCUACCUUUUCUUUUAGAAUGGGACUUUUCUAGUGUGAGUGUCUAGGUUGGAUAGGAGACCUUGCCAAAUUC`, the bound/input enrichment was 0.698 ratio.
`UGCAGUUCAAAUCCUUGCCCCAGUGAGGGAAUCCCUAGGGAAGUGGGUGAUGGGACUAGAGUAGAUCCACUUCCUCCAGUUCAUUCGGCCUCUAAAGAAAUCACAGAGUCCAAGGCACAA` has a bound/input enrichment of 0.192 ratio.
The bound/input enrichment of `GGAGGGUCUGAUUUUUUAAGGAAAAGAUUGCAGAAAGGGCAAAAGUAUUUUGAUUCUGGGGACUACAACAUGGCAAAAGCAAAGAUGAAGAACAAGCAGCUUCCUGCUGCAGCCCCGGAU` is reported as 0.513 ratio.
`UAAAUGCCCUGAGAAAAGCAUAAGAUUAAAAACAAUCCAUGGGCUAUUUGUGUUACUGCUAUAGAAAGGUUUUUUAAAAAGCUAUCUUUCAUAUUGAAUUUUUGAAUUCUUAAAAAGCCU` has a bound/input enrichment of 0.365 ratio.

Series 3
Target: Histone acetyltransferase KAT6A, winged helix 1, GST fusion (KAT6A, Homo sapiens, UniProt Q92794, residues 1-85)
Method: protein binding microarray
Molecule type: double-stranded DNA, one strand shown
Matrix: in vitro
Concentration: not given
Setting: 8-mer, flanks averaged, mean of 2 arrays, mostly near background
Baseline: not given
Reading: higher = stronger binding
Construct (chain): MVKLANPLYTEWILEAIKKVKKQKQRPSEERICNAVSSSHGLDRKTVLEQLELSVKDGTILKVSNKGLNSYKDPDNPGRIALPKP
`CTTCTCGA` gave an E-score of -0.27.
For `ACGAGAAA`, the E-score was -0.199.
For `CGCGCATC`, the E-score was 0.425.
The E-score of `CTATAAGC` is reported as 0.0769.
The E-score of `ATCTTGAG` is reported as -0.165.
For `AAAAGGCA`, the E-score was -0.17.
`ATGAAGTG` gave an E-score of -0.0318.
`CGGCTTAC` gave an E-score of 0.266.
With `GTGAAAAA` the E-score was -0.191.
The E-score of `GCCATCCC` is reported as -0.0215.
For `ATTTTACC`, the E-score was -0.042.
With `ACTCGTCT` the E-score was -0.191.
The E-score of `CGACGACC` is reported as 0.0151.
`ACCACATG` has an E-score of -0.0895.
With `AGACATAT` the E-score was -0.0162.
`AAGGTTAC` has an E-score of 0.0161.
With `AAATGAGT` the E-score was -0.11.
`TCTTTACA` has an E-score of -0.22.
`ATATCTGC` gave an E-score of -0.0832.
With `AATCAAGC` the E-score was -0.0249.
The E-score of `AATAGTGC` is reported as 0.17.
The E-score of `AGGATCGA` is reported as -0.181.
The E-score of `GGAATAAC` is reported as -0.0104.
For `TCCATCAA`, the E-score was -0.182.
For `CTAGTTGA`, the E-score was -0.118.

Series 4
Target: Interferon regulatory factor 7, full length, phosphomimetic (IRF7, Homo sapiens, UniProt Q92985, residues 1-503, S471D/S472D/S475D/S476D/S477D/S483D/S484D/S487D)
Method: protein-binding microarray
Molecule type: double-stranded DNA, one strand shown
Matrix: in vitro
Concentration: 2200 nM top
Setting: 60-bp whole probe
With: salmon DNA 0.4 mg/ml
Baseline: random background probes
Reading: higher = stronger binding
Shared flanks, not repeated: GCCTAGCAC … GTCTTGATTCGCTTGACGCTGCTG
Residues (chain): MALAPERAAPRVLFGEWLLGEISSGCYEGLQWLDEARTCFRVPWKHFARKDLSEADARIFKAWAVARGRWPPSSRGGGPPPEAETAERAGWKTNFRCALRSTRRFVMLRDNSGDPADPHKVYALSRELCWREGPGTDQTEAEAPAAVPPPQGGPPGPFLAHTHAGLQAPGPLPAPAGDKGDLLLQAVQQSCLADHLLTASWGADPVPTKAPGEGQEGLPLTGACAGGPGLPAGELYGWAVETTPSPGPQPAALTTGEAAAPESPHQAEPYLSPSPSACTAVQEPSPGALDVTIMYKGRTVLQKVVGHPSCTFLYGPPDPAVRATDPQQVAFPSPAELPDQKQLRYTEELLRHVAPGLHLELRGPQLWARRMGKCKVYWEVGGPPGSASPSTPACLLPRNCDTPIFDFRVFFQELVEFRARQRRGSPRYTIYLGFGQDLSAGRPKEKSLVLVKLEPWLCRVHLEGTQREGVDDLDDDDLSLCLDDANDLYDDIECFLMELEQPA
`ATCATTTTTGCTTACGATGCGTGCTAG` — result for “fitted relative affinity”: 1.81 z-score.
For `GACGGACTGCTTATCCAGACGTGCTAG`, “fitted relative affinity” read 0.116 z-score.
`GACGGACTGGGGTTTCTGGACGTGCTA`: “fitted relative affinity” -0.555 z-score.
`GTCGGTTTCCTTATCCTGACGTGCTAG`: “fitted relative affinity” 3.89 z-score.
`TTAGGGTTCGACTTTCGGTTAGTGCTA`: “fitted relative affinity” 6.03 z-score.
`TTAGATTTCAGTTCCGATTTGTGCTAG`: “fitted relative affinity” 3.21 z-score.
For `TTAGGTTTCCATCTCCTTTAGTGCTAG`, “fitted relative affinity” read 3.09 z-score.
`TTAGGACTGGGACTGGGTTCGTGCTAG`: “fitted relative affinity” -0.638 z-score.
For `TTAGGTTTCGGGTTTCGGCTAGTGCTA`, “fitted relative affinity” read 8.83 z-score.
For `GACGGTCTCCTTATCCTGATGTGCTAG`, “fitted relative affinity” read 1.13 z-score.
`TCAATTATTGTTTCCTTACTGTGCTAG` — result for “fitted relative affinity”: 1.39 z-score.
`GATGATTTCAGTATCGAGACGTGCTAG`: “fitted relative affinity” 0.742 z-score.
`TTAGATATCGGGACTGGATCAGTGCTA` — result for “fitted relative affinity”: -0.176 z-score.
`TTTTCTCTTATTCTAACAGCGTGCTAG`: “fitted relative affinity” 2.51 z-score.
`GTAGAACTGAGTCTCGATTAGTGCTAG`: “fitted relative affinity” 0.109 z-score.
Under “fitted relative affinity”, `TCACCACTCTTTCCTCACACTGTGCTA` is recorded as 2.11 z-score.
`TTATATTTCGGGACTGGATTAGTGCTA` — result for “fitted relative affinity”: 0.936 z-score.
`CTGCATTACAGCTATTTTTAGGTGCTA`: “fitted relative affinity” 0.721 z-score.
Under “fitted relative affinity”, `GAATGTCTTCCCCTCTCTTTGTGCTAG` is recorded as 2.16 z-score.
Under “fitted relative affinity”, `GTCGGTTTCGGTTCCGGGACGTGCTAG` is recorded as 12.9 z-score.
`GACGAACAGGGGTATCGAGACGTGCTA`: “fitted relative affinity” -0.00881 z-score.
`GACGCTATCGGTCTCGGGACGTGCTAG` — result for “fitted relative affinity”: 0.387 z-score.
Under “fitted relative affinity”, `GGCTGTTTGATCTTGATCCTGTGCTAG` is recorded as 0.454 z-score.

Excerpt of the above (series 3):
`AAGGTTAC` has an E-score of 0.0161.
With `AAATGAGT` the E-score was -0.11.
`CTTCTCGA` gave an E-score of -0.27.
With `AATCAAGC` the E-score was -0.0249.
